# Measured values gathered from unrelated publications.
# ± gives the spread as reported.
SMILES,cell line,assay,setting,IC50
C#CCCCCCCCCC=CCC(O)CC(O)CO (stereo not shown),Vero,cytotoxicity,,> 47.6 µg/mL
O=C(O)COCC(=O)O,iPSC-derived hepatocytes B1,cell viability,"72 h, differentiation day 23",11100 µM
C=C1C[C@](OC)([C@H](OCOC/C=C/B2OC(CC)(CC)C(CC)(CC)O2)C(=O)NC[C@@H]2C[C@@H](OC)C(C)(C)[C@@H](C[C@@H](COC)OC)O2)O[C@H](C)[C@@H]1C,Renca,"cell viability, sulforhodamine B","72 h, 37 °C, without H2O2",0.0037 ± 0.0002 µM
Cc1c(C(=O)O)ccc2c3n(nc12)[C@@H]1[C@H](C3)N(CC2CC2)[C@@]2(C(=O)Nc3cc(Cl)ccc32)[C@H]1c1cccc(Cl)c1F,UACC-812 (MDM2-amplified),"cell growth, alamarBlue",120 h,0.24 µM
CCCCN1C[C@H](O)[C@@H](O)[C@@H](O)[C@H]1CO,sample E patient fibroblasts,"GlcCer level lowering, LC-MS/MS, item: GlcCer d18:1/24:1",216 h,51.8 µM
Cc1nc(NC(=O)N2CCC[C@H]2C(N)=O)sc1-c1ccnc(C(C)(C)C(F)(F)F)c1,NCI-H1563,"growth rate inhibition, CellTiter-Glo",120 h,0.758 µM
Cc1c(C)c2c(c(C)c1O)CCC(C)(COc1ccc(CC3SC(=O)NC3=O)cc1)O2 (stereo not shown),iPSC-derived hepatocytes B1,cell viability,"72 h, differentiation day 23",48 µM
COc1cc2nccc(Oc3ccc(NC(=O)C4(C(=O)Nc5ccc(F)cc5)CC4)cc3)c2cc1OC,Rh6 (embryonal rhabdomyosarcoma),cell growth,3 days,10.4 ± 3.67 µM
CC1(COc2ccc3c(c2)ncn3-c2ccc3cccc(N4CCC(N)CC4)c3n2)COC1,"primary AML mononuclear cells, FLT3-ITD negative","cell viability, MTS",ex vivo,7.51 µM
Cc1cc(Nc2ncc(Cl)c(Nc3ccccc3S(=O)(=O)C(C)C)n2)c(OC(C)C)cc1C1CCNCC1,Rh2 (embryonal rhabdomyosarcoma),cell growth,3 days,0.77 ± 0.15 µM
Cc1c2ccnc(C(=O)NCCN(C)C)c2cc2c3cc(O)ccc3n(C)c12,HEK-293T transfected (G4C2)66-GFP,"RAN translation, item: GFP",,0.3 µM
COC(=O)CN=c1scc(-c2ccccc2)n1-c1ccc(OC)cc1,Panc 04.03,"cell viability, MTT",72 h,33.4 µM
Cc1cnc(-c2ccc(-c3ccc(NC(=O)Nc4c(F)cc(F)cc4F)cc3F)c3c2C(=O)NC3)[nH]1,"primary AML mononuclear cells, FLT3-ITD negative","cell viability, MTS",ex vivo,0.535 µM
C[C@@H]1CC[C@@H]([C@](O)(CNCc2cccc3ccccc23)COCc2ccccc2)[C@H](OCc2ccccc2)C1,HeLa,"cell growth, inhibitor, MTT",72 h,2.56 µM
CC(=O)N1CCC(Nc2cc(C(=O)NC[C@H](O)CN3CCc4ccccc4C3)ncn2)CC1,PK-1 MTAP deleted,cell viability,240 h,0.024 µM
COc1ccc(F)cc1C(=O)NCc1ccc(-c2nn([C@@H](C)C(F)(F)F)c(N)c2C(N)=O)cc1,Rec1,item: G-CSF,24 h,> 0.1 µM
CCN1CCN(Cc2ccc(NC(=O)c3ccc(C)c(/C=C/c4cnc5[nH]ccc5c4OC)c3)cc2C(F)(F)F)CC1,Ba/F3 BCR-ABL,"cell proliferation, CellTiter-Glo",48 h,< 0.01 µM
CN(C)C/C=C/C(=O)Nc1cc2c(Nc3ccc(F)c(Cl)c3)ncnc2cc1O[C@H]1CCOC1,NCI-H1975 FKBP12F36V-PTPN2,"cell viability, CellTiter-Glo",6 days,2.1 µM
CCc1nc(C(N)=O)c(Nc2ccc(N3CCC(N4CCN(C)CC4)CC3)c(OC)c2)nc1NC1CCOCC1,"primary AML mononuclear cells, FLT3-ITD negative","cell viability, MTS",ex vivo,2.96 µM
COc1cc2c3c(n(CCCN4CCOCC4)c(=O)c2cc1OC)-c1nc2c(cc1C3=O)OCO2,CHLA-99 Ewing sarcoma cells,"cytotoxicity, MTS",72 h,0.526 ± 0.028 µM
C=CCCCCCCCCCCCC(O)CC(O)CO (stereo not shown),Vero,cytotoxicity,,> 47.6 µg/mL
C=C1C[C@@]23CC[C@H]4[C@@](C)(CCC[C@@]4(C)C(=O)O)[C@@H]2CC[C@@H]1C3,S102,"cytotoxicity, MTT",75 h,99.3 µM
c1ccc([I+]c2ccccc2)cc1,Caco-2,"cell growth, trypan blue count",48 h,~0.155 µM
C[C@H]1Oc2cc(cnc2N)-c2c(nn(C)c2C#N)CN(C)C(=O)c2ccc(F)cc21,Ba/F3 parental,cell viability,together with: 10 ng/mL IL-3,> 10 µM
O=P1(C2CCCCC2)CCCCC1,SW480,"cytotoxicity, MTT",72 h,13.8 to 16.1 µM
COC(=O)CN=c1scc(-c2ccccc2)n1-c1ccccc1OC,Panc 04.03,"cell viability, MTT",72 h,12.6 µM
Cn1ncnc1[C@H]1c2n[nH]c(=O)c3cc(F)cc(c23)N[C@@H]1c1ccc(F)cc1,SK-OV-3 PALB2 knockout,colony formation,,0.000549 µM
O=C1CC[C@H](N2Cc3cc(N4CCN(CC5CCN(c6ccc([C@@H]7c8ccc(O)cc8CC[C@@H]7c7ccccc7)cc6)CC5)CC4)ccc3C2=O)C(=O)N1,T47D-KBluc,"reporter gene, antagonist, ERE-luciferase","24 h, together with: estradiol",0.0011 µM
O=C(c1cc(Cc2n[nH]c(=O)c3ccccc23)ccc1F)N1CCN(C(=O)C2CC2)CC1,SK-OV-3 PALB2 knockout,colony formation,,0.0139 µM
Cc1[nH]c(/C=C2\C(=O)Nc3ccc(S(=O)(=O)N(C)c4cccc(Cl)c4)cc32)c(C)c1C(=O)N1CCN(C)CC1,Rh6 (embryonal rhabdomyosarcoma),cell growth,3 days,1.84 ± 0.7 µM
Cc1nc(Nc2ncc(C(=O)Nc3c(C)cccc3Cl)s2)cc(N2CCN(CCO)CC2)n1,NOK,"viability, CellTiter-Glo",72 h,0.44 µM

# Repeated from above:
SMILES,cell line,assay,setting,IC50
Cc1nc(NC(=O)N2CCC[C@H]2C(N)=O)sc1-c1ccnc(C(C)(C)C(F)(F)F)c1,NCI-H1563,"growth rate inhibition, CellTiter-Glo",120 h,0.758 µM
Cc1cc(Nc2ncc(Cl)c(Nc3ccccc3S(=O)(=O)C(C)C)n2)c(OC(C)C)cc1C1CCNCC1,Rh2 (embryonal rhabdomyosarcoma),cell growth,3 days,0.77 ± 0.15 µM
O=C(O)COCC(=O)O,iPSC-derived hepatocytes B1,cell viability,"72 h, differentiation day 23",11100 µM
